Assay results pooled from the literature.
Parts stem from different laboratories: compare values within a part only. Substitutions count along the parent as printed.

Sample 1 — technique: protein-binding microarray; form: double-stranded DNA, one strand shown; medium: in vitro; tested at: 250 nM; setting: 60-bp whole probe; with: salmon DNA 0.4 mg/ml; relative to: random background probes; direction: higher = stronger binding; constant ends, left off below: GCCTAGCAC … GTCTTGATTCGCTTGACGCTGCTG
Target: Interferon regulatory factor 7, full length, phosphomimetic (IRF7, Homo sapiens, UniProt Q92985, residues 1-503, S101K/S471D/S472D/S475D/S476D/S477D/S483D/S484D/S487D)
Target sequence (chain): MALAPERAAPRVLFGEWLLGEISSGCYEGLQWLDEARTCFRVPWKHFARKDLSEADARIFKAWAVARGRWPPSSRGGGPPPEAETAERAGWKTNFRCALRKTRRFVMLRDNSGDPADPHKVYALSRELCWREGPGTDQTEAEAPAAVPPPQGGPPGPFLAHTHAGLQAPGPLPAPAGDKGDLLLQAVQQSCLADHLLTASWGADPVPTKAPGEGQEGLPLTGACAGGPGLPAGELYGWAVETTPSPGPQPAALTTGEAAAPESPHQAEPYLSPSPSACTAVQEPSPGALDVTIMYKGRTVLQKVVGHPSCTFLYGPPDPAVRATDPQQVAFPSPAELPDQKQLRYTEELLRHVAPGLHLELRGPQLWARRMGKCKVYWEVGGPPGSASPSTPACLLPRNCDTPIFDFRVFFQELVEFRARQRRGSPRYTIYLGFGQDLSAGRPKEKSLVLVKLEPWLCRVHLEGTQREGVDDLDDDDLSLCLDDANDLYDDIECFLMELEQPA
| Sequence | log fluorescence [z-score] |
| --- | --- |
| TCAAAAATCATTTTCTCACTGTGCTAG | 0.81 |
| CACGATTTCGGGTATCGAGACGTGCTA | 1.21 |
| TTAGGTTCCCTTTCCCTTTAGTGCTAG | 3.55 |
| GTAGATCTCAGTTTCGATTAGTGCTAG | 8.03 |
| GACGATATAAGTCTCGAGACGTGCTAG | 0.375 |
| AACGATTTCGGGTTTCGAGACGTGCTA | 4.6 |
| GATGGACTGGGTTTCGGGACGTGCTAG | 1.78 |
| TTGTTTTTTGGTTTCTGGTTGTGCTAG | 6.26 |

Sample 2 — technique: RNAcompete; form: RNA; medium: in vitro; tested at: 20 nM; setting: 7-mer, probes averaged, single round; relative to: mean of 7-mers; direction: higher = stronger binding
Target: PABPC1L2, full length, GST fusion (mouse, UniProt A0ABA7IW68)
Target sequence (chain): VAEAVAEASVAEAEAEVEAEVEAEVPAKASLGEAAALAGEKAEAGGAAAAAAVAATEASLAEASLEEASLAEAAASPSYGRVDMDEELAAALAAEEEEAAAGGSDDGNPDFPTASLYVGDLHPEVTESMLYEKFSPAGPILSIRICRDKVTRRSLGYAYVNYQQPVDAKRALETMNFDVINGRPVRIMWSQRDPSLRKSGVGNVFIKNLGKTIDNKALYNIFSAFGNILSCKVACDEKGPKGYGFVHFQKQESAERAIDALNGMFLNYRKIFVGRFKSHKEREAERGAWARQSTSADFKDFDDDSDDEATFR
| Sequence | 7-mer Z-score |
| --- | --- |
| UUCCGCC | -0.427 |
| GUCGCAU | -0.335 |
| CACAUGG | -0.106 |
| GCGAUAG | -0.00108 |
| UGGCGCC | -0.186 |
| AUUAAAU | 0.809 |
| GUUCAGA | -0.204 |
| GUCCCAC | -0.171 |

Sample 3 — Change: S104D; technique: DHFR PCA, deep sequencing; medium: yeast; relative to: wild-type fitted maximum; direction: higher = stronger binding
Target: ABI1, truncated, D143A, DHFR fusion (Arabidopsis thaliana)
Setting: methotrexate growth selection, single substitutions
Parent: PYL1, truncated, DHFR fusion (Arabidopsis thaliana); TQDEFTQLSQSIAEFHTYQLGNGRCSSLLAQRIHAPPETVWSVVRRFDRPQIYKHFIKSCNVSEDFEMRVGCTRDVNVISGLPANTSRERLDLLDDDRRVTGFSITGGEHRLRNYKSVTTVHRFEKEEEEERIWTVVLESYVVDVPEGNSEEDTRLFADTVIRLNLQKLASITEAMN
| with | relative binding score |
| --- | --- |
| (+)-ABA 0 µM | -6.55% |
| (+)-ABA 4.8 µM | -11.7% |
| (+)-ABA 58 µM | -1.02% |
| (+)-ABA 0.032 µM | -8.28% |
| (+)-ABA 710 µM | 24.5% |
| (+)-ABA 17 µM | -16.3% |

Mixed results
| Compound | organism | observed | tested at | time | setting | measurement | result |
| --- | --- | --- | --- | --- | --- | --- | --- |
| C[C@H]1c2cccc(O)c2C(=O)C2=C(O)[C@]3(O)C(=O)C(C(N)=O)=C(O)[C@@H](N(C)C)[C@@H]3[C@@H](O)[C@@H]21 | Sarcocystis neurona | parasite growth | 10 µM | 96 h | first screen | inhibition | -29.1% |

A few entries again (sample 3):
| with | relative binding score |
| --- | --- |
| (+)-ABA 58 µM | -1.02% |
| (+)-ABA 0.032 µM | -8.28% |
